Experimental data pooled from the literature.
Protocols differ between the studies behind these lines. “And” joins repeats or separate records; there may be more than shown. ± marks the error that the study gave.
Scn4a: Sodium channel protein type 4 subunit alpha (Scn4a, Rattus norvegicus, UniProt P15390)
OPRL1: Nociceptin receptor (OPRL1, Homo sapiens, UniProt P41146)
PTPN3: Tyrosine-protein phosphatase non-receptor type 3 (PTPN3, Homo sapiens, UniProt P26045)

Chains of the proteins cited; added tags and fusions are not shown. A line that says so, or that is headed by a name, gives the form on record, which may keep a tag or linker. Residues count along the entry.
UniProt P15390, whole entry: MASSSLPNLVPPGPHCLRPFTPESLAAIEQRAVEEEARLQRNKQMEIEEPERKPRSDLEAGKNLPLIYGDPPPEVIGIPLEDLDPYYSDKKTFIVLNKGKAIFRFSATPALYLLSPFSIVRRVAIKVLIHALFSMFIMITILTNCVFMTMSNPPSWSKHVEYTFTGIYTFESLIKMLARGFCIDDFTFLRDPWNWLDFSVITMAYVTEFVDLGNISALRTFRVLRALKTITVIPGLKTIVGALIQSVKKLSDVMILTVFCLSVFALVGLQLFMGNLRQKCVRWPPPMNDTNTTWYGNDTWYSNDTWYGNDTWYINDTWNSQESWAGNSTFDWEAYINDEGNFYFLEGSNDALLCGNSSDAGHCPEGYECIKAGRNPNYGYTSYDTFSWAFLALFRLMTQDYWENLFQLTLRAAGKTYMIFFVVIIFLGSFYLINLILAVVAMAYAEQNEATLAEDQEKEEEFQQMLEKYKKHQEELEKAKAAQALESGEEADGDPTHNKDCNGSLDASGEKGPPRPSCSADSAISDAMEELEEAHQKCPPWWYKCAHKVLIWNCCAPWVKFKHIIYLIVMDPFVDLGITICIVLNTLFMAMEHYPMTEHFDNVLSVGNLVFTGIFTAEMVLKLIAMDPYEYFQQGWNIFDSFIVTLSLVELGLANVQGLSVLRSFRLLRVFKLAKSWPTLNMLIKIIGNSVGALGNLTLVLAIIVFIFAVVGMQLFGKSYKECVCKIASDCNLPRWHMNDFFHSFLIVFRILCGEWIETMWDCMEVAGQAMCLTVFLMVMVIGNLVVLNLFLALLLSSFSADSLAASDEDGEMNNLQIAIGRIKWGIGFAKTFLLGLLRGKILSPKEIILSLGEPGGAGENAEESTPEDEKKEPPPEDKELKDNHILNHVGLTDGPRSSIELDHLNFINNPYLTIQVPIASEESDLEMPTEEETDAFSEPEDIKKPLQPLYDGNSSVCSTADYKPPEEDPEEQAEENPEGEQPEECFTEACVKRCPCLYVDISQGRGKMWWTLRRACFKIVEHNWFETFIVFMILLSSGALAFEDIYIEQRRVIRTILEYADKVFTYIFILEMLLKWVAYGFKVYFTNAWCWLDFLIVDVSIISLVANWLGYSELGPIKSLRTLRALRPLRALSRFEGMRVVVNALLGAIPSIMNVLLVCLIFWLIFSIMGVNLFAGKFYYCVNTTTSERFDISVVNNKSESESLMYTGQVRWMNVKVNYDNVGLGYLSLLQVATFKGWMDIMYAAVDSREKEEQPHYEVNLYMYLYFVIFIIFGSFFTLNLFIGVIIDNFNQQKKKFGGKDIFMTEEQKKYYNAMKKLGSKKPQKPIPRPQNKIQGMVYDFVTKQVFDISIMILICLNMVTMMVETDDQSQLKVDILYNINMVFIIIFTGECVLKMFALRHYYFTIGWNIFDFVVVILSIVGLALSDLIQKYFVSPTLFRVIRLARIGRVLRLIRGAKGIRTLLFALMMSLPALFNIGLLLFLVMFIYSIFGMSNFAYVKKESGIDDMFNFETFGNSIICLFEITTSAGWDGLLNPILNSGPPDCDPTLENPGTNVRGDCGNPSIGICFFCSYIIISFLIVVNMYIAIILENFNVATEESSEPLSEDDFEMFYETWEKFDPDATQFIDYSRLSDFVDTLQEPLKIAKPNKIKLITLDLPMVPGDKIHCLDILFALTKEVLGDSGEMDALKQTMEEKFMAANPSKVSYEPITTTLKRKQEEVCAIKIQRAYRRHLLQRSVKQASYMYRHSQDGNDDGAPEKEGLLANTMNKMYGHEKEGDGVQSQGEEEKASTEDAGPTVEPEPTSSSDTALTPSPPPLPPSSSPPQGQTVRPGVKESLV
UniProt P41146, whole entry: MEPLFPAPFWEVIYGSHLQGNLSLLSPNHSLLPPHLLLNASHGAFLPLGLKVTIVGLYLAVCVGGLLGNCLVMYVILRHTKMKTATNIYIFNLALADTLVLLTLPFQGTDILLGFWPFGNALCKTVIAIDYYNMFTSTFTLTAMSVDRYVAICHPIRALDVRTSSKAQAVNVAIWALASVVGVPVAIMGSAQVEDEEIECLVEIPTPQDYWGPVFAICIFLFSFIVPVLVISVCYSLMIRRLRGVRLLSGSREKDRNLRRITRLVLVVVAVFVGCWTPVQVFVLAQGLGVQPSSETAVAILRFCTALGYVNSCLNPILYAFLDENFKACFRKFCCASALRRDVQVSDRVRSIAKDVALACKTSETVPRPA
UniProt P26045, 646-901 limits assumed: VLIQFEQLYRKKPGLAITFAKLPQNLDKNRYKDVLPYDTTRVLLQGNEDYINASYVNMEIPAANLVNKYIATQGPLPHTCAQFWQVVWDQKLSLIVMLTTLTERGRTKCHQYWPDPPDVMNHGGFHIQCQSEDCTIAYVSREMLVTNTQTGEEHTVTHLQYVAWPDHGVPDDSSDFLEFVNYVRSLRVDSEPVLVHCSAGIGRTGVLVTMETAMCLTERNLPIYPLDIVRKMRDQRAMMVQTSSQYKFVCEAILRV
UniProt O42275, whole entry, looked up: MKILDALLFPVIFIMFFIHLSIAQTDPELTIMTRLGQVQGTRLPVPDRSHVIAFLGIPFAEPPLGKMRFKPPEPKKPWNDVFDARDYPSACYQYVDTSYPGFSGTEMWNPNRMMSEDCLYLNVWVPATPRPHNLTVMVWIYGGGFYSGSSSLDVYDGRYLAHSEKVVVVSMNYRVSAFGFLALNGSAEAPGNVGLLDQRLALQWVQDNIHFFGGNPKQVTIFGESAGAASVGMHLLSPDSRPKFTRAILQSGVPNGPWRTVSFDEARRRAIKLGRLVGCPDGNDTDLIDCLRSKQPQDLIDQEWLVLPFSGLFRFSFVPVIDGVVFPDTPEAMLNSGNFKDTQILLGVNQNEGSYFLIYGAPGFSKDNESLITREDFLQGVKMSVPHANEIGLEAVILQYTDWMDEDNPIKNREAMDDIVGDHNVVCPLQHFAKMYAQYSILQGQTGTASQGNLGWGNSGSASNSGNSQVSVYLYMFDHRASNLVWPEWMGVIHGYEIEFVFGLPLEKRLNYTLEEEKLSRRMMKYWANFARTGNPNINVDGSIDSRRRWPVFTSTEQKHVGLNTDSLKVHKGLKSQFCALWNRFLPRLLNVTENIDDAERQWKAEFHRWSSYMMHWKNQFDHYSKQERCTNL
UniProt P30926, whole entry, looked up: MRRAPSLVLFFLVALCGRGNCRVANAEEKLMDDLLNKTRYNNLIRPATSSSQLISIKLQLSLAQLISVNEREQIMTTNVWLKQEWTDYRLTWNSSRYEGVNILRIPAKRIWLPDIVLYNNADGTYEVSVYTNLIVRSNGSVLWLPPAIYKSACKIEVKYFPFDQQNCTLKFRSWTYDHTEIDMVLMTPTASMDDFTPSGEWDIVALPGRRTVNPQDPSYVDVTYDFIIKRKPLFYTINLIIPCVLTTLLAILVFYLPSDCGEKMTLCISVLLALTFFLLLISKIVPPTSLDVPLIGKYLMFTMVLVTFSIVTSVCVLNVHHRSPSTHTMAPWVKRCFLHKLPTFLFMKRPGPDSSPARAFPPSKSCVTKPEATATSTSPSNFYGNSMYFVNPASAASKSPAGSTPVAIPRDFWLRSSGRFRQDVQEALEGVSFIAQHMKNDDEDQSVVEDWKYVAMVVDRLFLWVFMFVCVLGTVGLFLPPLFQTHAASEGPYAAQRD
UniProt P32297, whole entry, looked up: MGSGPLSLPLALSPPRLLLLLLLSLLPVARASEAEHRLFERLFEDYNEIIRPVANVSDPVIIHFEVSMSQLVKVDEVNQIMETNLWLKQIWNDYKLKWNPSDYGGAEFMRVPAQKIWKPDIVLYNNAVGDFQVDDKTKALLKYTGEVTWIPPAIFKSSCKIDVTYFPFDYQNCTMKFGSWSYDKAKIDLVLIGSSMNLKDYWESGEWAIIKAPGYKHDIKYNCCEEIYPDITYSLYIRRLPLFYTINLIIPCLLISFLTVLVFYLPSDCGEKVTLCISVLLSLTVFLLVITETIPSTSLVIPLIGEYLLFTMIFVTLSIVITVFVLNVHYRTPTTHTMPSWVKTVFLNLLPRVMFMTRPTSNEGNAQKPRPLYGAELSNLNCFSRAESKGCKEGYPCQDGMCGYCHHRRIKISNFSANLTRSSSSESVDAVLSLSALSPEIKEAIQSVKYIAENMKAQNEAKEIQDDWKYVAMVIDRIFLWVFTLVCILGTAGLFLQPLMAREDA
UniProt P08510, 1-655 with tags or gaps DEL6-46: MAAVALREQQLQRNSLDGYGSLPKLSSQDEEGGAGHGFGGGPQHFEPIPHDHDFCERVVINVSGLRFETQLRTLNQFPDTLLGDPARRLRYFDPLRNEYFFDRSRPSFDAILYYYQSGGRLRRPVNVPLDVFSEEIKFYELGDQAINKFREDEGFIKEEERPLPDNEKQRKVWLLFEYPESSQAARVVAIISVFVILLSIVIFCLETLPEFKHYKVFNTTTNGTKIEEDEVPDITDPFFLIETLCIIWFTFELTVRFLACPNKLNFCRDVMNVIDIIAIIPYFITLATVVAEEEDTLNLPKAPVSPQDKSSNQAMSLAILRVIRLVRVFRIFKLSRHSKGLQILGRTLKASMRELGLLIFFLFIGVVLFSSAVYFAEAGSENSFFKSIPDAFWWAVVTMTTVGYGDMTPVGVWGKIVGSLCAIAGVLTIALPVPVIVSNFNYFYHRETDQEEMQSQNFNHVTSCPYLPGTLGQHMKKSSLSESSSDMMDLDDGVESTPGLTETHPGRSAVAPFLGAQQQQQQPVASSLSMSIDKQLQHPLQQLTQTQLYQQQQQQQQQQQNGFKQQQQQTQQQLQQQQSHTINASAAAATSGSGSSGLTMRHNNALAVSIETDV
UniProt P04757, 26-499 limits assumed: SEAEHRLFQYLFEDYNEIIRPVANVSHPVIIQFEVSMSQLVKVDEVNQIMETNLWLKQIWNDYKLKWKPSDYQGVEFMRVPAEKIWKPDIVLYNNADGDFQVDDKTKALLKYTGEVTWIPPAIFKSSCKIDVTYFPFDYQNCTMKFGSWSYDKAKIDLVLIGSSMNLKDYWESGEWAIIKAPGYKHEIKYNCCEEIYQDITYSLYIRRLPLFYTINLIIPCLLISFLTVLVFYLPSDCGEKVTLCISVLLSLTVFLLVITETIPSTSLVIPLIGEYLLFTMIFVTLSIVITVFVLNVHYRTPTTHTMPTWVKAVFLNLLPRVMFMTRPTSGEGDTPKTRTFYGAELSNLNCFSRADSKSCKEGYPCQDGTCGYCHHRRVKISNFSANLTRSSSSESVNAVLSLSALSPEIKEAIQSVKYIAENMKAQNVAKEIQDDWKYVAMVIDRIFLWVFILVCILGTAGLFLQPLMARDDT
UniProt P12390, 25-500 limits assumed: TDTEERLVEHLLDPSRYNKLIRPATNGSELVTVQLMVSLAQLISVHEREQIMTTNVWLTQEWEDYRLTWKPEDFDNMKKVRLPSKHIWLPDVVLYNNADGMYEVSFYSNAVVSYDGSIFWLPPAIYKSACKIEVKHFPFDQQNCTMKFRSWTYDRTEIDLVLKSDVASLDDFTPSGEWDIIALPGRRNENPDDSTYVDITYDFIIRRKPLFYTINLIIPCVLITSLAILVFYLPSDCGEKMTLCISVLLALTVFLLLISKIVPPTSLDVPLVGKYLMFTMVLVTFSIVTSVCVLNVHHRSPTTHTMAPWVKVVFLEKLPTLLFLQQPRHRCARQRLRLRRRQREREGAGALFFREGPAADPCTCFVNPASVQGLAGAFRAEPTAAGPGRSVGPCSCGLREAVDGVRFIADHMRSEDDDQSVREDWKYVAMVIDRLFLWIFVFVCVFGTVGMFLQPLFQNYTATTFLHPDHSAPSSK
UniProt Q8WSF8, 18-236 limits assumed: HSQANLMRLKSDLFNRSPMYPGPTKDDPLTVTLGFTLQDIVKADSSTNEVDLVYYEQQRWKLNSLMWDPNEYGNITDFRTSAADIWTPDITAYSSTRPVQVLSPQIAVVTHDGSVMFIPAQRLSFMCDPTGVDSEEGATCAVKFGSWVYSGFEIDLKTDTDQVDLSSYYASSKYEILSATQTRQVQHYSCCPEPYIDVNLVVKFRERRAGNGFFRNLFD
UniProt P63096, 2-354 partner limits assumed: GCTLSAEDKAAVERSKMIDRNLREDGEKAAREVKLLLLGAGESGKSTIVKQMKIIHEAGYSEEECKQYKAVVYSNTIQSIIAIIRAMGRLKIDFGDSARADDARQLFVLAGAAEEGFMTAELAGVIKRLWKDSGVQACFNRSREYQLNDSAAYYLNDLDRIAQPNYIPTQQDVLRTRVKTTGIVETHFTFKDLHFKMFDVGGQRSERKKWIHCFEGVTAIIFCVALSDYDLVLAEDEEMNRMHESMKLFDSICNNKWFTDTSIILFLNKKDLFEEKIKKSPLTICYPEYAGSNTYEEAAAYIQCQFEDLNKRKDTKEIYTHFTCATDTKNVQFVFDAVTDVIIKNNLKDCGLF
UniProt P62873, whole entry partner: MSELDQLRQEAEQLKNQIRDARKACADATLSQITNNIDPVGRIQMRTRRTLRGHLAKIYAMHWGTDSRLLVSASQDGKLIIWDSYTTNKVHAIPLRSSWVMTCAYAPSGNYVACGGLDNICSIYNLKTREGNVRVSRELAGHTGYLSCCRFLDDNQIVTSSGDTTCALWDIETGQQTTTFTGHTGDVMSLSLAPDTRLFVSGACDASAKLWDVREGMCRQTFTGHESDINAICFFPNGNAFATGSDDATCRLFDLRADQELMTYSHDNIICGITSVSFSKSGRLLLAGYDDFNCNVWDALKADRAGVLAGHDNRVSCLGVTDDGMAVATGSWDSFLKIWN

O=c1cc(-c2cc(O)c(O)c(S(=O)(=O)O)c2)oc2cc(O)c(S(=O)(=O)O)c(O)c12
inhibition (Spike glycoprotein, RBD with ACE2 (Severe acute respiratory syndrome coronavirus 2, UniProt P0DTC2); spike RAB binding, ratiometric fluorescence imaging; SARS-CoV-2; 20 µM): 72%

CC(C)[C@H](N)C(=O)N[C@H](C(=O)N[C@@H](CC(=O)O)C(=O)N[C@@H](CCCNC(=N)N)C(=O)N[C@H]1CSSC[C@@H]2NC(=O)[C@H](Cc3c[nH]c4ccccc34)NC(=O)[C@H](CCCNC(=N)N)NC(=O)CNC(=O)[C@@H]3CSSC[C@@H](C(N)=O)NC(=O)[C@H](CSSC[C@H](NC1=O)C(=O)N[C@@H](CCCCN)C(=O)NCC(=O)N[C@@H](CCCCN)C(=O)N[C@@H](CCCNC(=N)N)C(=O)N[C@@H](CCC(=O)O)C(=O)N3)NC(=O)[C@H](CCCNC(=N)N)NC(=O)[C@H](CO)NC(=O)[C@H](Cc1c[nH]cn1)NC(=O)[C@H](CC(=O)O)NC(=O)[C@H](CCCNC(=N)N)NC2=O)[C@@H](C)O
inhibition (Scn4a; sodium current, two-electrode voltage clamp; Xenopus oocytes; 1 µM, 30 min): ~87%

O=C(O)C(O)=CC(=O)C1(Cc2ccc(Cl)cc2)CCN(C(=O)C=Cc2ccccc2)CC1
inhibition (Replicase polyprotein 1ab, nsp14 with nsp10 (rep, Severe acute respiratory syndrome coronavirus 2, UniProt P0DTD1); exonuclease activity, inhibitor; 20 µM): 74%

Cc1ccc(S(=O)(=O)Nc2cccc(C(=O)NC3CCN(c4ncnc5[nH]cnc45)CC3)c2)cc1
inhibition (Replicase polyprotein 1ab, nsp14 ExoN with nsp10 (rep, Severe acute respiratory syndrome coronavirus 2, UniProt P0DTD1); ExoN activity; 0.04883 µM): 10.1%

CNC(=O)CC1C(=O)N(C2CCN([C@H]3CC[C@@H](C(C)C)CC3)CC2)c2ccccc21 (stereo partly shown)
intrinsic activity (OPRL1; G protein activation, GTPγS binding; CHO membranes; concentration not given, unit not given; relative to: compound over N/OFQ Emax): 0.91

O=C(/C=C/c1ccc(O)cc1)/C(C(=O)Nc1ccccc1)=C(O)/C=C/c1ccc(O)cc1
Ki (Lethal factor (Bacillus anthracis, UniProt P15917); enzyme activity, uncompetitive inhibitor; apparent): 19.7 µM

CC(=O)N[C@@H](Cc1c[nH]cn1)C(=O)N[C@@H](CC(=O)O)C(=O)NCC(=O)N[C@@H](CC(C)C)C(=O)N[C@@H](Cc1cc(=O)oc2cc(OP(=O)(O)O)ccc12)C(=O)N[C@@H](CCC(N)=O)C(=O)NCC(=O)N[C@@H](CC(C)C)C(=O)N[C@@H](CO)C(=O)N[C@H](C(=O)N[C@@H](C)C(=O)N[C@H](C(=O)N[C@@H](CCCCN)C(=O)N[C@@H](CC(=O)O)C(=O)N[C@H](C(=O)N[C@@H](Cc1ccc(OP(=O)(O)O)cc1)C(=O)N[C@@H](CC(=O)O)C(=O)N[C@@H](C)C(=O)N[C@@H](CC(C)C)C(=O)N[C@@H](Cc1c[nH]cn1)C(N)=O)[C@@H](C)O)[C@@H](C)O)[C@@H](C)O
kcat (PTPN3; substrate; pH 6, TCR zeta-chain ITAM peptide): 0.33 s⁻¹

CN(C)Cc1ccc(OC(=O)N(C)C)c(Cl)c1
Vmax (ache (Electrophorus electricus, UniProt O42275); enzyme activity, inhibitor, Ellman; 14.0 µM, together with: acetylthiocholine iodide): 0.053 absorbance units/min

CC(C)[C@H]1CC[C@@H](N2CCC3(CC2)C(=O)NCN3c2ccccc2)CC1
potency ratio (OPRL1; β-arrestin 2 recruitment, BRET; HEK293; relative to: compound EC50 over N/OFQ EC50): 63

CC[C@H](C)[C@@H]1NC(=O)[C@H](CCC(=O)O)NC(=O)[C@@H]2CCCN2C(=O)[C@H](Cc2c[nH]cn2)NC(=O)[C@H](CC(=O)O)NC(=O)[C@H](C(C)C)NC(=O)[C@H](CC(N)=O)NC(=O)[C@@H]2CSSC[C@H](NC(=O)[C@H](CCC(N)=O)NC(=O)[C@@H]3CCCN3C(=O)[C@@H](N)CCCNC(=N)N)C(=O)N[C@@H](CSSC[C@@H](C(N)=O)NC1=O)C(=O)N[C@@H](CO)C(=O)N[C@@H](Cc1c[nH]cn1)C(=O)N1CCC[C@H]1C(=O)N[C@@H](C)C(=O)N2
maximal inhibition (Neuronal acetylcholine receptor; alpha3/beta4 (Homo sapiens, UniProt P30926+P32297); ACh-evoked current, antagonist, two-electrode voltage clamp; Xenopus oocytes; 5 min, pH 7.4, holding potential -70 mV): 77%

CC(C)[C@H](N)C(=O)NCC(=O)N[C@@H](CCC(=O)O)C(=O)N[C@@H](CCCNC(=N)N)C(=O)N[C@H]1CSSC[C@@H]2NC(=O)[C@H](Cc3c[nH]c4ccccc34)NC(=O)[C@H](CCCNC(=N)N)NC(=O)CNC(=O)[C@H](CSSC[C@@H](C(N)=O)NC(=O)[C@H](C)NC(=O)[C@H](CCCNC(=N)N)NC(=O)[C@H](CO)NC(=O)[C@H](Cc3c[nH]cn3)NC(=O)[C@H](CC(=O)O)NC(=O)[C@H](CCCNC(=N)N)NC2=O)NC(=O)CNC(=O)[C@H](CCCNC(=N)N)NC(=O)[C@H](CCCCN)NC(=O)CNC(=O)[C@H](CC(N)=O)NC(=O)[C@H](CCCCN)NC(=O)[C@H](C)NC1=O
Kd ratio (Scn3a (Rattus norvegicus, UniProt P08104); sodium current, two-electrode voltage clamp; relative to: analogue over wild-type µ-conotoxin BuIIIB): 1.3

CC[C@H](C)[C@@H]1NC(=O)[C@H](CCCNC(=N)N)NC(=O)[C@@H](N)CSSC[C@@H]2NC(=O)[C@@H]3CSSC[C@@H](C(=O)N[C@H](C(=O)O)C(C)C)NC(=O)[C@H](CCCCN)NC(=O)[C@H](CC(N)=O)NC(=O)[C@H](Cc4ccccc4)NC(=O)[C@H](CCCNC(=N)N)NC(=O)[C@H](CC(N)=O)NC(=O)[C@H](CSSC[C@H](NC(=O)[C@H](CCCCN)NC(=O)[C@H](CCC(N)=O)NC(=O)[C@H](CC(N)=O)NC(=O)[C@@H]4C[C@@H](O)CN4C1=O)C(=O)N[C@@H](Cc1ccccc1)C(=O)N[C@@H](CCC(N)=O)C(=O)N[C@@H](Cc1c[nH]cn1)C(=O)N[C@@H](CC(C)C)C(=O)N[C@@H](CC(=O)O)C(=O)N[C@@H](CC(=O)O)C(=O)N3)NC(=O)[C@H](CCCCN)NC(=O)[C@H](CCCNC(=N)N)NC(=O)[C@H](CO)NC2=O
koff (Sh (Drosophila melanogaster, UniProt P08510, del6-46); potassium current, outside-out patch clamp; 500 nM, pulse application, zero voltage, internal K 100, together with: 1 mM TEA): 15 ± 1 s⁻¹

CC(=O)N[C@@H](Cc1c[nH]cn1)C(=O)N[C@@H](CC(=O)O)C(=O)NCC(=O)N[C@@H](CC(C)C)C(=O)N[C@@H](Cc1cc(=O)oc2cc(OP(=O)(O)O)ccc12)C(=O)N[C@@H](CCC(N)=O)C(=O)NCC(=O)N[C@@H](CC(C)C)C(=O)N[C@@H](CO)C(=O)N[C@H](C(=O)N[C@@H](C)C(=O)N[C@H](C(=O)N[C@@H](CCCCN)C(=O)N[C@@H](CC(=O)O)C(=O)N[C@H](C(=O)N[C@@H](Cc1ccc(O)cc1)C(=O)N[C@@H](CC(=O)O)C(=O)N[C@@H](C)C(=O)N[C@@H](CC(C)C)C(=O)N[C@@H](Cc1c[nH]cn1)C(N)=O)[C@@H](C)O)[C@@H](C)O)[C@@H](C)O
kcat/Km (PTPN3; substrate; pH 6, TCR zeta-chain ITAM peptide): 81.7 s⁻¹ mM⁻¹

O=C1Cc2ccccc2N1C1CCN([C@@H]2CC[C@H]3CCCc4cccc2c43)CC1
potency ratio (OPRL1; G protein interaction, BRET; HEK293 membranes; relative to: compound EC50 over N/OFQ EC50): 90

CC(C)C[C@@H]1NC(=O)[C@H](C(C)C)NC(=O)[C@H](C)NC(=O)[C@@H]2CSSC[C@H](NC(=O)CN)C(=O)N[C@@H](CSSC[C@@H](C(N)=O)NC(=O)[C@H](Cc3ccc(O)cc3)NC1=O)C(=O)N[C@@H](CO)C(=O)N[C@@H]([C@@H](C)O)C(=O)N1CCC[C@H]1C(=O)N1CCC[C@H]1C(=O)N2
selectivity ratio (Neuronal acetylcholine receptor; alpha3/beta2 (Rattus norvegicus, UniProt P04757+P12390); antagonist, membrane potential fluorescence; HEK293; relative to: alpha3beta4 over alpha3beta2 IC50): 10 fold

C[C@@H]1NC(=O)[C@H](Cc2c[nH]c3ccccc23)NC(=O)[C@H](CCCCN)NC(=O)COCCNC(=O)[C@@H]2CSSC[C@@H](C(N)=O)NC(=O)[C@H](CSSC[C@H](N)C(=O)N[C@@H](CC(N)=O)C(=O)N2)NC(=O)[C@H](CCCNC(=N)N)NC(=O)[C@H](CO)NC(=O)[C@H](Cc2c[nH]cn2)NC(=O)[C@H](CC(=O)O)NC(=O)[C@H](CCCNC(=N)N)NC1=O
block (Scn4a; sodium current, blocker, two-electrode voltage clamp; Xenopus oocytes; 1 µM): 70 ± 2%

CC[C@H](C)[C@H](NC(=O)[C@H](CC(C)C)NC(=O)[C@H](Cc1ccc(OP(=O)(O)O)cc1)NC(=O)[C@H](CCC(=O)O)NC(=O)[C@H](CC(=O)O)NC(=O)[C@H](C)NC(=O)[C@H](CC(=O)O)NC(=O)[C@@H](NC(=O)[C@H](CC(C)C)NC(=O)CCCC[C@@H]1SC[C@@H]2NC(=O)N[C@@H]21)C(C)C)C(=O)N1CCC[C@H]1C(=O)N[C@@H](CCC(N)=O)C(=O)N[C@@H](CCC(N)=O)C(=O)NCC(=O)O
koff (Secreted effector protein (Yersinia pestis, UniProt O68720, C403A/D356A); surface plasmon resonance): 0.018 s⁻¹

C=CC1=C[C@@H]2[C@@H]3O[C@]4(C[C@H]5CCC[C@@]6(CC[C@@]7(O[C@@H](CC[C@@]7(C)O)CC(=C)CCCC7=NC[C@H](C)[C@@H](C)C[C@@]72CC1)O6)O5)C[C@@H](C)[C@@H](O)[C@H]3O4
selectivity ratio (Soluble acetylcholine receptor (Aplysia californica, UniProt Q8WSF8); relative to: L-AChBP Kd over Soluble acetylcholine receptor Kd): ~400 fold and 420 fold

COc1cc(Cc2cnc(N)nc2N)cc(/C=C/C(=O)N2N=Cc3ccccc3[C@@H]2C=C(C)C)c1OC
affinity gain (dfrA (Bacillus anthracis, UniProt Q81R22); relative to: S-enantiomer over R-enantiomer): 100 fold

Repeated from above:
O=C1Cc2ccccc2N1C1CCN([C@@H]2CC[C@H]3CCCc4cccc2c43)CC1
potency ratio (OPRL1; G protein interaction, BRET; HEK293 membranes; relative to: compound EC50 over N/OFQ EC50): 90

CC(C)C[C@@H]1NC(=O)[C@H](C(C)C)NC(=O)[C@H](C)NC(=O)[C@@H]2CSSC[C@H](NC(=O)CN)C(=O)N[C@@H](CSSC[C@@H](C(N)=O)NC(=O)[C@H](Cc3ccc(O)cc3)NC1=O)C(=O)N[C@@H](CO)C(=O)N[C@@H]([C@@H](C)O)C(=O)N1CCC[C@H]1C(=O)N1CCC[C@H]1C(=O)N2
selectivity ratio (Neuronal acetylcholine receptor; alpha3/beta2 (Rattus norvegicus, UniProt P04757+P12390); antagonist, membrane potential fluorescence; HEK293; relative to: alpha3beta4 over alpha3beta2 IC50): 10 fold
